Measurements gathered from unrelated publications.
Parts stem from different laboratories: compare values within a part only. Changes are numbered by the printed parent chain.

Set 1
Target: Phosphate system positive regulatory protein PHO4, full length, GST-tagged (PHO4, Saccharomyces cerevisiae, UniProt P07270, residues 1-312)
Method: competition protein-binding microarray
Molecule type: double-stranded DNA, one strand shown
Sample: in vitro
Concentration: 2 µM
Notes: whole 60-bp probe, lowest competitor level
With: Cbf1 competitor, 0.05 µM
Direction: higher = stronger binding
All sequences stand within: … GTCTTGATTCGCTTGACGCTGCTG
Target sequence (chain): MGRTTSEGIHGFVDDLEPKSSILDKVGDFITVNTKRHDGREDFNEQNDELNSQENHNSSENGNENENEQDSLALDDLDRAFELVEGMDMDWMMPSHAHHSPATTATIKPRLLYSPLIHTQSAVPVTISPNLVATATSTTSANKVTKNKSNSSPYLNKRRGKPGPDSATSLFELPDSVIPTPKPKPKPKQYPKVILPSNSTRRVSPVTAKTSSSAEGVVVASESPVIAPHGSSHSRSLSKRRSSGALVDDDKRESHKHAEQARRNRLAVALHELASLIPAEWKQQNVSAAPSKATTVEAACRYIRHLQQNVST
| Oligonucleotide | fluorescence intensity [a.u.] |
| --- | --- |
| CTCTTAGTTTGGCATCTCATGACGCGGCACACATTC | 5780 |
| CGCCGTCCTGTAATCCATGTGGCAAGTCCACCGTAA | 6940 |
| AAAGCGGTAATTTGTCACCCTACTTCACATATCTAT | 4000 |
| AAGTTGCTTCTTTGCCACGTGTTCCATTGAAGATTG | 18200 |
| AGAGATTTACGATCTAGCGTGGTTACCTAATAACAG | 5350 |
| CGATGTATCTTCCGTCACCTGCACCACCACAATTGA | 5480 |
| AAATTACTAAGTTGACCTGTGGGTGACGCCGTATGA | 4090 |
| AGCTTTGAAAACTCCCATGTGGCGCGCCCGTCTTAA | 9100 |
| CTTCTGTAAATTTGAAAAGTGGGTGGACGCGCCCCG | 4170 |
| CATACCCAACCTTGGGAGGTGGGTGAAGATATTTGT | 4110 |
| TTGCATGTAAGCGTTACTAATATTCCGCTTTATTTT | 3370 |
| AAAGCGGTAATTTGTCACTATACTTCACATATCTAT | 3600 |
| TTCTAGGTTTAACTTCACGTGTTCCCCACCGAGGCG | 12400 |
| ATCAGGCATTCATTGACCGTGCCGAACAAACCAAGC | 6400 |
| TTTTTCCTCTCTGGCCAGGTGACGTTCTGAATTTTT | 3080 |
| CATACCCAACCTTGTCACCCAACTTAAGATATTTGT | 4000 |
| ATTTCCGGGACGAGTCACGCTGTTATCAATGACTTT | 6190 |
| CAAACCACTTTGGTTACCGTGACGAACTGCGAATCT | 3200 |
| TCTATAATAACCTCCCATGTGAAAATACCAACCTCT | 6250 |
| TTCTTTACCGTTTTGCACGTGCGATGCGAAAAGTAT | 17900 |
| ATCAGTAGACATGGACACGTGCCAGAAGTCATCAAA | 17400 |
| ACCCTTACCGGCCTTGACGTGGGTAACAGCGGTAGC | 4570 |
| GTCTCTAACCATGATACCGTGACTCGACTACATCCG | 5680 |
| GTCTTGTCTCATTGAATCGTGGGTGTCCCCACTTCA | 7980 |
| AGAGACAATTGTTGCCTCGTGGCCGGGCTATTTACA | 11900 |

Set 2
Target: RNA binding protein fox-1 homolog 2, RRM domain, GST-SBP tag (RBFOX2, Homo sapiens, UniProt O43251-10, residues 100-194)
Method: RNA Bind-n-Seq
Molecule type: RNA
Sample: in vitro
Concentration: 365 nM
Notes: natural RNA segment, single round, ends assumed
Relative to: no-protein control
Direction: higher = stronger binding
All sequences stand within: GGGAGUUCUACAGUCCGACGAUC … UGGAAUUCUCGGGUGCCAA
Construct (chain): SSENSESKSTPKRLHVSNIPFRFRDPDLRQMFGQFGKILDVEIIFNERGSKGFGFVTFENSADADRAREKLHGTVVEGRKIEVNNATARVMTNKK
| Oligonucleotide | RBNS enrichment (R) |
| --- | --- |
| CGAGCGUUUGAGAAGAGGGCAUGGCGCUGGAGUGAGAUGGGAUUUGGCGUCUCGUUUUUGGCUAAUUGAUUGUCAUUGGCUUUUUCCAUAAAGUUUAGAAAUCGUUCAGU | 0.559 |
| UGCGGAGAGAGUGGGAGUGCUCAGGGAAAGAAGGUGAUUUGUAUUUGUCUCCCCGCUGAAAAGAACAGGAUUCAAGUCCAGAGUUUUCAUCUUCAGCCUGUGAUCUGUCC | 0.397 |
| AACAGAUAGGACAGGACAGGGCUCUGGGUGCUGUCCAGGGACUAAGGAAUACAGCUAAAUAAACCAAGGGGGCUAGGCCCAGUCAGCCAUUGUACAGAGGCCCAGAUUUC | 0.532 |
| UGUCCAUCCUCGCUGUCCUUUCCCUGUUCUCCCCCUGCCCCCCGUCUCUAUCCUCUGUGGCCUUCAGCUAAUUUCUGCUCCCCUGAGAUUCGUCCUUCAGCCCCAUCAUG | 0.775 |
| UAGGCCGGUGUCGGUUCUGUUUCUCCCCUUGGCUGCCUGUACGCCCACAGCCUUCUGGCUGCGACAUUAUAGAAUCGGCCGUGUCCCCCCUGGUGGGGGAUUGGGGAUCU | 0.284 |
| CAUAUUUUGUUUGUUAUCACCAGAGAUGCCUGAACUCAGUUAAGCGAGCAAUUGCUAGUUGUCUUGAGGAGCAUGAGGAAUUCAGGAGCAGAAGGUCAGGAUAGCAUGAG | 30.2 |
| UUAGAUUUGCCGUACCAAUCUCUGAAUGCCCCAUAAUUAUUAUUUCCAGUGUUUGGGAUGACCAGGAUCCCAAGCCUCCUGCUGCCACAAUGUUUAUAAAGGCCAAAUGA | 0.484 |
| UCGUCCUUCCAUGGCUGUAAUUAAGAUGGGGGAGCUUCGCUGAUCGUUGUGUAGUGAGCACCUUGUUCCCACUUUUGUAGUCCUUUCCGUUCUGACCCGUCAGCAGCCUG | 0.708 |
| AGAAAUGUGUUGUGUUGUCUUAGCUUUAAAACAGUCACAGUUCUUGCUCUAUCAUAGAUGAACAAAUACUUUCUUGAUCAUUCUGUAAGACCAGGAGGUUGGUAAGAGUG | 0.489 |
| GGGACCCCUGGUUGGGGAACAGGUGAGUUCUAUUUGAGACUUCCAGCCCUAGAAAGCUGCCUCCGUCCAGAAAUGCCUCUCACACCAGGAGCUCGGCCCUCUCUUUGUAG | 0.294 |
| UUAAAUAUCUAUUUAAAAGAUAGGAAGCUGCUUAUAUAUUUAAUAAUAAAAGAAGUGCACAAGCUGCCAUGUGAGUCGUGGGAAAGUUGCUUUUGGGGUGUGGGUGGCAA | 1.01 |
| UUUAAUUUACAAACUGUUUUGGUAAAUCUCUUAAUGUAAGUAGCUAUUUGACUUUGGAAUUUUGCAUUCGAGGUAUACUGUCAUUUCUUGAAAUCUUUUUCUCGUUUAGU | 1.03 |

Set 3
Target: ABI1, truncated, D143A, DHFR fusion (Arabidopsis thaliana)
Method: DHFR PCA, deep sequencing
Sample: yeast
Notes: methotrexate growth selection, single substitutions
With: (+)-ABA 0 µM
Relative to: wild-type fitted maximum
Direction: higher = stronger binding
Starting sequence: PYL1, truncated, DHFR fusion (Arabidopsis thaliana); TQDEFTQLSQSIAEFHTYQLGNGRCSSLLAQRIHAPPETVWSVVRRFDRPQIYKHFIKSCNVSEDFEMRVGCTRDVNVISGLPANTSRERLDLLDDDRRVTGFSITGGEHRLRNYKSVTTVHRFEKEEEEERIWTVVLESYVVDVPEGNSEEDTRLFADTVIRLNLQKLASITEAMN; partner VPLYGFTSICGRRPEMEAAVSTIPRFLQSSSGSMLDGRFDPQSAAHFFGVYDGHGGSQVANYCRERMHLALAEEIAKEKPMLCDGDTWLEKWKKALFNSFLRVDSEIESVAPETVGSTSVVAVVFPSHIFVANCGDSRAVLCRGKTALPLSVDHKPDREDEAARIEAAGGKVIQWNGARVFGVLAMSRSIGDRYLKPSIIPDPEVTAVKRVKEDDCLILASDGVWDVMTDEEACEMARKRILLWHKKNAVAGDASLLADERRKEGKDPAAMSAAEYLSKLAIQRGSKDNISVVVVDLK
| Substitution | relative binding score |
| --- | --- |
| S63M | 2.53% |
| T17R | 1.7% |
| S104D | -6.55% |
| D96L | -11.7% |
| I57E | 6.38% |
| R99C | 12.9% |
| R49Y | 4.19% |
| I79A | 16.3% |
| P50C | 2.94% |
| A158S | -9.46% |
| S27N | 39.7% |
| L8N | -4.06% |
| L112E | -2.08% |
| V44G | 1.43% |
| V143L | -5.53% |

Set 4
Target: CCND1, cyclin fold, Cln2 fusion (human)
Method: yeast growth competition, sequencing
Sample: yeast
Notes: weak parent motif
Relative to: not given
Direction: higher = stronger binding
Starting sequence: ORC1 docking peptide (human); PRARKRLELGNLG; partner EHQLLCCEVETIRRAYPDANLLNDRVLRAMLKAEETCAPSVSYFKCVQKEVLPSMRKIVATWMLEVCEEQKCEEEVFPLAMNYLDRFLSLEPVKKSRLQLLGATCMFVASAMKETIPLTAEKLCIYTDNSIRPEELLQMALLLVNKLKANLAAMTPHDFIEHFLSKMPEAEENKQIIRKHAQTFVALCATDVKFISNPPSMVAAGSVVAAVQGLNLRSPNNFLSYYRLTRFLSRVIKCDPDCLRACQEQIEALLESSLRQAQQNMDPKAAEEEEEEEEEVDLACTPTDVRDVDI
| Substitution | normalised enrichment score |
| --- | --- |
| PRARKRLGLGNLG [E8G] | -0.033 |
| PRARKRLEMGNLG [L9M] | 0.25 |
| PRARKRLELGNLK [G13K] | -0.00109 |
| PRARKRLTLGNLG [E8T] | -0.431 |
| PRARKRLELGNLN [G13N] | -0.229 |
| PRLRKRLELGNLG [A3L] | -0.511 |
| PRACKRLELGNLG [R4C] | -0.277 |
| PRARKRLELSNLG [G10S] | -0.53 |
| PRARKRVELGNLG [L7V] | -0.735 |
| PRAAKRLELGNLG [R4A] | -0.00538 |
| PRAWKRLELGNLG [R4W] | 0.032 |
| PRARKCLELGNLG [R6C] | -0.111 |
| PRARKRNELGNLG [L7N] | -0.369 |
| PRARKRLEKGNLG [L9K] | -0.2 |
| PRARWRLELGNLG [K5W] | 0.135 |
| PRARKRLELENLG [G10E] | 0.0437 |
| PRARKQLELGNLG [R6Q] | -0.315 |

Set 5
Target: ATF7, bZIP domain (human)
Method: DHFR protein complementation
Sample: yeast
Notes: single substitutions, most at no-binding floor
Relative to: wild-type JUN-FOS pair
Direction: higher = stronger binding
Starting sequence: JUN, bZIP domain (human); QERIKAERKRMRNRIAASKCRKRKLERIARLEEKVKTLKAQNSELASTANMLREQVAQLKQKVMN; partner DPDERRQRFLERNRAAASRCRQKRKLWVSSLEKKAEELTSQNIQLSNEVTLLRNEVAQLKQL
| Substitution | binding fitness |
| --- | --- |
| N42R | -1.26 natural log |
| Q55Y | -1.2 natural log |
| L52H | -1.47 natural log |
| M51A | -0.85 natural log |
| E54M | -1.16 natural log |
| E33P | -1.38 natural log |
| T48L | -0.822 natural log |
| A49P | -1.47 natural log |
| K36E | -0.805 natural log |
| I28Q | -0.941 natural log |
| A29K | -1 natural log |
| A57R | -0.909 natural log |
| V35W | -1.49 natural log |
| M51T | -0.857 natural log |
| S47L | -0.93 natural log |
| E33S | -1.19 natural log |
| R30Q | -0.618 natural log |
| T48Q | -0.695 natural log |
